Experimental data of several laboratories.
Lines come from different studies, so protocols differ. Several values in a cell are separate wells, animals, samples, runs or records. ± marks the error that the study gave.
Neuronal acetylcholine receptor; alpha4/beta2: Neuronal acetylcholine receptor; alpha4/beta2 (Homo sapiens, UniProt P17787+P43681)
Sequence of UniProt P43681 (whole entry, looked up): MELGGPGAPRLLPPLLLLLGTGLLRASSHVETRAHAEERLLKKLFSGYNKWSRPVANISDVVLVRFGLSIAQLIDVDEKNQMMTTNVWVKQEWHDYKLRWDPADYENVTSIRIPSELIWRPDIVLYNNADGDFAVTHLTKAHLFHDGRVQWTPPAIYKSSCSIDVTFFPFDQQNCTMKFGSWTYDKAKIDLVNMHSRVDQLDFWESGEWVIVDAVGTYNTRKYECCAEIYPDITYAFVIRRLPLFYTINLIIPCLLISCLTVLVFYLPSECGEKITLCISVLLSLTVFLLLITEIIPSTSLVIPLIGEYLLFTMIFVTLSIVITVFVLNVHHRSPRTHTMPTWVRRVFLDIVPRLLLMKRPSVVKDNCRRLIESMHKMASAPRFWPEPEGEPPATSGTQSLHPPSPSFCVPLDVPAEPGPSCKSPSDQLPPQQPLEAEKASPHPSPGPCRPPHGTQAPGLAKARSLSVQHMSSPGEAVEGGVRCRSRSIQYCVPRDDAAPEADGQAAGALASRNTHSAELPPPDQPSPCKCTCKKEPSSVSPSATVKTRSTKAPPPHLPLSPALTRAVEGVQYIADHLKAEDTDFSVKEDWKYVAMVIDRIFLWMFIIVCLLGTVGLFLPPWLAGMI
Sequence of UniProt P17787 (whole entry, looked up): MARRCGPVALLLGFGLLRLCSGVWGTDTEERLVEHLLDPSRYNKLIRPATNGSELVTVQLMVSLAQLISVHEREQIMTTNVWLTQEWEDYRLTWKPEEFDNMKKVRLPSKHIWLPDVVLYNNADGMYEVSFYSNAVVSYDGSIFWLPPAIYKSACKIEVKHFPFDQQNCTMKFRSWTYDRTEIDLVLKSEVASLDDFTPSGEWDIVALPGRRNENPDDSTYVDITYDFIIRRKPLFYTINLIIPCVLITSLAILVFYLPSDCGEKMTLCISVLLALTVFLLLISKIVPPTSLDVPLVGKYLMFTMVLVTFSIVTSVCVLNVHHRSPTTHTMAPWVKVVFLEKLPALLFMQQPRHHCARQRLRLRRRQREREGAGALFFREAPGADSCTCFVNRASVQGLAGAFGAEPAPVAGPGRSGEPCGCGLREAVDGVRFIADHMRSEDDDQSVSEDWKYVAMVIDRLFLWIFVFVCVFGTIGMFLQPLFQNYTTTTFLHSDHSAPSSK
HTR2C: 5-hydroxytryptamine receptor 2C (HTR2C, Homo sapiens, UniProt P28335)
Sequence of UniProt P28335 (whole entry, looked up): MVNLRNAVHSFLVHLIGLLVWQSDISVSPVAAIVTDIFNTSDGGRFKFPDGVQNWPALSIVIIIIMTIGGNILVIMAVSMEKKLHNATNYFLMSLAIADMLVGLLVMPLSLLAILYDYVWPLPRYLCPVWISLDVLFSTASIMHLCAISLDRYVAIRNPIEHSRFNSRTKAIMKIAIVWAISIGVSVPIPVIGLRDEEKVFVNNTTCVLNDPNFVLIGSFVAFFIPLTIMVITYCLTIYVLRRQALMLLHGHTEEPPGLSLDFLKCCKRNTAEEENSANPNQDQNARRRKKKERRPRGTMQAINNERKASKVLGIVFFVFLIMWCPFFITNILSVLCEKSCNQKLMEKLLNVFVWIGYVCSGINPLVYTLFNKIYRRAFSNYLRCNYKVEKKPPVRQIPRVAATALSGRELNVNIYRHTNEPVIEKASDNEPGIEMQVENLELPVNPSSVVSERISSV
nadD: Probable nicotinate-nucleotide adenylyltransferase (nadD, Mycobacterium tuberculosis, UniProt P9WJJ5)
Sequence of UniProt P9WJJ5 (whole entry, looked up): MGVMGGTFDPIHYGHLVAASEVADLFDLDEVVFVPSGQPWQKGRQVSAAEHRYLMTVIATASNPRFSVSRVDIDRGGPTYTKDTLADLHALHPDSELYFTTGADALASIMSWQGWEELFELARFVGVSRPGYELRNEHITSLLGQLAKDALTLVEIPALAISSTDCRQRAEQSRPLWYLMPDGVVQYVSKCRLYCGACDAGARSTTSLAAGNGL
SLC6A4: Sodium-dependent serotonin transporter (SLC6A4, Homo sapiens, UniProt P31645)
Sequence of UniProt P31645 (whole entry, looked up): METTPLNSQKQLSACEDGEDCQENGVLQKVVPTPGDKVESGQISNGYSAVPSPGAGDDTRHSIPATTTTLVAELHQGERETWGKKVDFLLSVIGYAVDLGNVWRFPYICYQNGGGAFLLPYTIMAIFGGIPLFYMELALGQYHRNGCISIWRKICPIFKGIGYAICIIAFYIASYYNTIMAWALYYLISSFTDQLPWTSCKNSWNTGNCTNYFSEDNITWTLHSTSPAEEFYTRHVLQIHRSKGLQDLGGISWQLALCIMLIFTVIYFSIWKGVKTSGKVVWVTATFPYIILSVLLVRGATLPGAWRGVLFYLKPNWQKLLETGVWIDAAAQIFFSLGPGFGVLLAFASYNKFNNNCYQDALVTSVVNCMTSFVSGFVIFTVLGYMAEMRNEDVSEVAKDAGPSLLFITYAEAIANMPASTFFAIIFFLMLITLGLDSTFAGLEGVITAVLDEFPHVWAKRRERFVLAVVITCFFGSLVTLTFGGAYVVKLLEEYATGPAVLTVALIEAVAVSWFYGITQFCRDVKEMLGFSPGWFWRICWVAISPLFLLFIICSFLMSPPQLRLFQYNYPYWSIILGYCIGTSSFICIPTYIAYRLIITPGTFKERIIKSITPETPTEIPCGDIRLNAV
Sequence of UniProt P36544 (whole entry, looked up): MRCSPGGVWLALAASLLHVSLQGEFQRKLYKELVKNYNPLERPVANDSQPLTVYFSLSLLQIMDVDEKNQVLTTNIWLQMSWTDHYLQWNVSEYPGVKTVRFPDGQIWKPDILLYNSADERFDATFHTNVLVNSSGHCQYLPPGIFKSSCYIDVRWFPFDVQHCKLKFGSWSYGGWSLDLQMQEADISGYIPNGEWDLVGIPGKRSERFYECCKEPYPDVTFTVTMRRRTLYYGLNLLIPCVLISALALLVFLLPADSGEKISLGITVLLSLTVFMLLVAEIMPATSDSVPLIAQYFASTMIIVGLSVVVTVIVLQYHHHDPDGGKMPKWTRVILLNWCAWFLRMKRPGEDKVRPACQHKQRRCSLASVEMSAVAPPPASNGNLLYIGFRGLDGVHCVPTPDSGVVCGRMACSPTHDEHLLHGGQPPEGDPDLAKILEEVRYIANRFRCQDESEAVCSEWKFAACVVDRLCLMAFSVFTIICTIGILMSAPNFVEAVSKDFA
Sequence of UniProt Q61327 (whole entry, looked up): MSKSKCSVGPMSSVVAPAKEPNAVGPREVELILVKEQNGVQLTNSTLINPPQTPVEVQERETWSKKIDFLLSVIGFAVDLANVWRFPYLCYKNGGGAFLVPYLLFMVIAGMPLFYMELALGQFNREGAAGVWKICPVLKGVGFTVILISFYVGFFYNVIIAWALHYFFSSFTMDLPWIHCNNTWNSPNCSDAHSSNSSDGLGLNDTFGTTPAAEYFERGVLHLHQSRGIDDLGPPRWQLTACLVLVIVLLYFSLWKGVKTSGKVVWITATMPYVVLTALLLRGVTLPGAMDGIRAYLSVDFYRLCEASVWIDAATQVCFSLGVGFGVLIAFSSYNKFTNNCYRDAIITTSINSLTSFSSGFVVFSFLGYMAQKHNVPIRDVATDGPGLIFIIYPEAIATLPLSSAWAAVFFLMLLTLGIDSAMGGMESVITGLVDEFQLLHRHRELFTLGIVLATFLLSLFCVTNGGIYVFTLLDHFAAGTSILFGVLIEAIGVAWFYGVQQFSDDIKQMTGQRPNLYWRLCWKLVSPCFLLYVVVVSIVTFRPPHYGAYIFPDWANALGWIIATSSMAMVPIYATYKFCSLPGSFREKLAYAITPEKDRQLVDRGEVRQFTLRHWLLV
Sequence of UniProt P10275 (whole entry, looked up): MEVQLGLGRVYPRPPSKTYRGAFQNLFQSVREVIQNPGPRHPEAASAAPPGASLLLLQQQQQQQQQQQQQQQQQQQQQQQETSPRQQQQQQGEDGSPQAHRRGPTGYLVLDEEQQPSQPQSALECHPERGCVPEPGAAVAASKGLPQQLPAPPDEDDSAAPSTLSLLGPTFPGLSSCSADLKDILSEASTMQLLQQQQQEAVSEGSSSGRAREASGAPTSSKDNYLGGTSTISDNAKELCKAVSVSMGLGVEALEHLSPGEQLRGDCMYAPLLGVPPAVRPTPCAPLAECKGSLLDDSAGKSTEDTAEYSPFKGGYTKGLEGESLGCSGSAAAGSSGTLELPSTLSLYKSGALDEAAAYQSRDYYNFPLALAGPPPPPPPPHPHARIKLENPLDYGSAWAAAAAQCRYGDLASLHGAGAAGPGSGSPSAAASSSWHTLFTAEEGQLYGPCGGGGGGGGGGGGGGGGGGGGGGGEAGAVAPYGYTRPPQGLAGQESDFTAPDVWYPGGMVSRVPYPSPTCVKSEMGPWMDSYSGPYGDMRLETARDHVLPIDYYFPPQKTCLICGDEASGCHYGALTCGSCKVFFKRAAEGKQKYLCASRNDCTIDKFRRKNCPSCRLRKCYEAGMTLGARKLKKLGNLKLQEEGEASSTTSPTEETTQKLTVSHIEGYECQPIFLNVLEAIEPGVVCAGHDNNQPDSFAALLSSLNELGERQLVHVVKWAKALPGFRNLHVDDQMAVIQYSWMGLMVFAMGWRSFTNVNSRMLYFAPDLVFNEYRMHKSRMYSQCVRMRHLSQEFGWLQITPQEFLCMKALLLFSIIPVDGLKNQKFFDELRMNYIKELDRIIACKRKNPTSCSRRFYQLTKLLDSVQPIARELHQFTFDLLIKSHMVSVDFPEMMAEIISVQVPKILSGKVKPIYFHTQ

Compound | target | assay | system | conditions | scale | IC50
CN1[C@H]2CC[C@@H]1[C@@H](C(=O)Oc1ccccc1)[C@@H](c1ccc(Cl)cc1)C2 | Slc6a3 (Mus musculus, UniProt Q61327) | transporter uptake, inhibitor, radiometric |  |  |  | 0.00065 µM
CCC1=C[C@@H]2CN3CCc4c([nH]c5ccccc45)[C@@](C(=O)OC)(C2)[C@@H]13 | Neuronal acetylcholine receptor; alpha4/beta2 | calcium influx, antagonist | HEK293-hα4β2 | 5 min, together with: (±)-epibatidine 0.1 µM |  | 12.6 ± 1.8 µM
CCC(NC)C(=O)c1ccc2c(c1)OCO2 (stereo not shown) | HTR2C | inositol phosphate, antagonist |  |  |  | > 1000 µM
Cc1n(CC(=O)OC2CC(C)CCC2C(C)C)c2ccccc2[n+]1C (stereo not shown) | nadD | released PPi detection |  |  |  | ~100 µM and 111 µM
CCCC(C(=O)c1ccc2c(c1)OCO2)N1CCCC1 (stereo not shown) | HTR2C | inositol phosphate, antagonist |  |  |  | > 1000 µM
COC1C(O)C(n2ccc(=O)[nH]c2=O)OC1C(OC1OC(C(=O)NC2CCCCNC2=O)=CC(O)C1O)C(N)=O (stereo not shown) | bacterial RNA polymerase | enzyme activity, inhibitor |  |  | greater than highest tested | > 100 µM
CNC(C)C(=O)c1cccc(C)c1 (stereo not shown) | SLC6A4 | transporter uptake, inhibitor, radiometric |  |  |  | 4.5 µM
CCC1(c2ccccc2)CCC(=O)NC1=O (stereo not shown) | Androgen receptor (AR, Homo sapiens, UniProt P10275) |  |  |  |  | no effect
C[C@]12CC[C@@H](O)C[C@@H]1CC[C@H]1[C@@H]3CC[C@H](C=O)[C@@]3(C)CC(=O)[C@@H]12 | GABAA receptor picrotoxin site |  |  |  |  | 0.77 ± 0.098 µM
CNC(C)C(=O)c1ccc(F)cc1 (stereo not shown) | HTR2C | inositol phosphate, antagonist |  |  |  | > 1000 µM
CCn1cc(C(=O)NCCC(C)C)c(=O)c2cc(F)c(N3CCN(C(=O)c4ccco4)CC3)cc21 | nadD | enzyme activity, inhibitor, released pyrophosphate |  |  |  | 17.4 ± 3.4 µM
CCNC(C)C(=O)c1ccc(Cl)cc1 (stereo not shown) | SLC6A4 | transporter uptake, inhibitor, radiometric |  |  |  | 0.36 µM
CCn1cc(C(=O)NCC(C)C)c(=O)c2cc(F)c(N3CCN(C(=O)c4ccco4)CC3)cc21 | nadD | enzyme activity, inhibitor, released pyrophosphate |  |  |  | 24.8 ± 4 µM
O=c1[nH]c2ccccc2n1C1CCN(CCCC(c2ccc(F)cc2)c2ccc(F)cc2)CC1 | CACNA1H (Homo sapiens, UniProt O95180) | calcium current, blocker, automated patch clamp | holding potential -90 mV | together with: 60 s prepulse, -75 mV |  | 8.9 ± 3.6 µM
CCn1cc(C(=O)Nc2cc(C)ccn2)c(=O)c2cc(F)c(N3CCN(C(=O)c4ccco4)CC3)cc21 | nadD | enzyme activity, inhibitor, released pyrophosphate |  |  |  | 25.7 ± 9.2 µM
Ic1cncc(OC[C@@H]2CCN2)c1 | Neuronal acetylcholine receptor; alpha4/beta2 | ligand displacement, radioligand |  |  |  | 0.0114 µM
CCCCCNC(=O)c1cn(CC)c2cc(N3CCN(C(=O)c4ccco4)CC3)c(F)cc2c1=O | nadD | enzyme activity, inhibitor, released pyrophosphate |  |  |  | 34 ± 8.7 µM
COCCC1CC2CN3CCc4c([nH]c5ccccc45)C(C(=O)OC)(C2)C13 (racemic) | CHRNA7 (Homo sapiens, UniProt P36544) | calcium influx, antagonist | GH3-hα7 | 5 min, together with: (±)-epibatidine 1.0 µM |  | 34.7 ± 5 µM
Cc1ccc(OCc2n(CC(=O)OC3CC(C)CCC3C(C)C)c3ccccc3[n+]2C)cc1 (stereo not shown) | nadD | released PPi detection |  |  |  | 19.5 ± 2.5 µM
CC#CCOC(=O)c1c(C)nc2sc3c(c2c1N)CCC(O)C3 (stereo not shown) | ERRα (human) | reporter gene, antagonist, luciferase reporter qHTS |  |  |  | 0.53 µM
COc1ccc(OCc2n(CC(=O)OC3CC(C)CCC3C(C)C)c3ccccc3[n+]2C)cc1 (stereo not shown) | nadD | released PPi detection |  |  |  | 6.3 ± 1.1 µM
CCCC(C(=O)c1ccc2c(c1)OCO2)N(C)C (stereo not shown) | SLC6A4 | transporter uptake, inhibitor, radiometric |  |  |  | 2.57 µM
